{"data": "Published values gathered from unrelated publications", "note": "Every numbered part comes from another study and shows a few of its results, in no order."}
{"data": "Series 1", "target": "TAR DNA-binding protein 43, full length, His tag (TARDBP, Homo sapiens, UniProt Q13148, residues 1-414)", "technique": "RNA Bind-n-Seq", "form": "RNA", "sample": "in vitro", "concentration": "20 nM", "notes": "6-mer, flanks averaged, single round", "added": "150 mM KCl", "relative to": "input library", "direction": "higher = stronger binding"}
{"Strand": "UGUUUA", "6-mer enrichment (R)": 0.695}
{"Strand": "UGGUGC", "6-mer enrichment (R)": 1.29}
{"Strand": "CCGUGU", "6-mer enrichment (R)": 0.806}
{"Strand": "UCUAGA", "6-mer enrichment (R)": 0.607}
{"data": "Series 2", "target": "Interferon regulatory factor 3, full length, phosphomimetic (IRF3, Homo sapiens, UniProt Q14653, residues 1-427, S386D/S396D/S398D/S402D/T404D/S405D)", "technique": "protein-binding microarray", "form": "double-stranded DNA, one strand shown", "sample": "in vitro", "concentration": "2540 nM top", "notes": "60-bp whole probe", "added": "salmon DNA 0.4 mg/ml", "relative to": "random background probes", "direction": "higher = stronger binding", "Target sequence (chain)": "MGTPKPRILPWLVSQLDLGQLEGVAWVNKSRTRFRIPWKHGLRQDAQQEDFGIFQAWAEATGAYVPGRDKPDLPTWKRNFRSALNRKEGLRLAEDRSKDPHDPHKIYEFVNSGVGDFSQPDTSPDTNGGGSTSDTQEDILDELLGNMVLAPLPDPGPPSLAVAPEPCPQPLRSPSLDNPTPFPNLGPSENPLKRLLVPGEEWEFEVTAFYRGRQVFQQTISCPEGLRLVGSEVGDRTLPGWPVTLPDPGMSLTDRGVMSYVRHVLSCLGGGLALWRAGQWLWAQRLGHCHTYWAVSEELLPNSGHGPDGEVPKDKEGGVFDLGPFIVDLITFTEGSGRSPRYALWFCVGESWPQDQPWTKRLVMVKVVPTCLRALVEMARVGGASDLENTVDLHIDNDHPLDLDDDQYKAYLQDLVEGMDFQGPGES"}
{"Strand": "GCCTAGCACTTAGGACTGGACTTTAGGTTAGTGCTAGTCTTGATTCGCTTGACGCTGCTG", "fitted relative affinity": "-0.684 z-score"}
{"Strand": "GCCTAGCACTTAGGTTCCGGTTTAGGTTAGTGCTAGGTCTTGATTCGCTTGACGCTGCTG", "fitted relative affinity": "4.59 z-score"}
{"Strand": "GCCTAGCACATAGGTTTCGGGTATCGGTTAGTGCTAGTCTTGATTCGCTTGACGCTGCTG", "fitted relative affinity": "4.75 z-score"}
{"data": "Series 3", "target": "Sal-like protein 4, full length isoform A (SALL4, Homo sapiens, UniProt Q9UJQ4, residues 1-1053)", "technique": "universal PBM", "form": "double-stranded DNA, one strand shown", "sample": "in vitro", "concentration": "600 nM", "notes": "8-mer, flanks averaged, mean of replicates", "direction": "higher = stronger binding", "sequence of UniProt Q9UJQ4 (whole entry, looked up)": "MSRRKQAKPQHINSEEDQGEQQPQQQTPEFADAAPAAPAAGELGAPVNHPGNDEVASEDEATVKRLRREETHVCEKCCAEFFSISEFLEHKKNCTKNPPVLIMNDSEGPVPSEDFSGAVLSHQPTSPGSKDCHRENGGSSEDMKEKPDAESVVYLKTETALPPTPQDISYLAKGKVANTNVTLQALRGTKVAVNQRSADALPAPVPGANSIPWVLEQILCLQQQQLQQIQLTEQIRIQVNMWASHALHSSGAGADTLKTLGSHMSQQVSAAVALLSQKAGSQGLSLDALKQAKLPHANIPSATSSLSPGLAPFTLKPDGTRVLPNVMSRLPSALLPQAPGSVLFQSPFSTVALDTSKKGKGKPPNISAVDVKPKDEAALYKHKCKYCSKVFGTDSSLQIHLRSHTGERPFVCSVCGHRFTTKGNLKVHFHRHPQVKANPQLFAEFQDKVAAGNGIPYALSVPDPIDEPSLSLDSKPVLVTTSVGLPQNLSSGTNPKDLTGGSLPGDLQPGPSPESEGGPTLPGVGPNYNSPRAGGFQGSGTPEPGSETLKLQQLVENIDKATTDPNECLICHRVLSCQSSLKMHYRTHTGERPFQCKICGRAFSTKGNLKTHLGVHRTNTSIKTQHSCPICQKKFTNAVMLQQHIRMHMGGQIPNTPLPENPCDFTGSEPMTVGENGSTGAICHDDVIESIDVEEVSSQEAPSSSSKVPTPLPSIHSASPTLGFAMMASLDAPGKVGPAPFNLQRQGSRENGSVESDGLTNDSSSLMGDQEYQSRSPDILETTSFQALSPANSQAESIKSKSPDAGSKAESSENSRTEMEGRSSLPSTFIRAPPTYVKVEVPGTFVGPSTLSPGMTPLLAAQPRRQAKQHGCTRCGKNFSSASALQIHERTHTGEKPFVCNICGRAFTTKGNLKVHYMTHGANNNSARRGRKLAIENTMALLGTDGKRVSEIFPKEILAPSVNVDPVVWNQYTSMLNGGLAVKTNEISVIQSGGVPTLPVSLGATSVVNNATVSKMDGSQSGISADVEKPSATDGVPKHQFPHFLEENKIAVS"}
{"Strand": "CTAGGGTA", "E-score": -0.12}
{"Strand": "AATTACCC", "E-score": 0.0736}
{"Strand": "CAGCTTCC", "E-score": -0.279}
{"Strand": "GCGCGCCC", "E-score": -0.315}
{"data": "Single results of other studies"}
{"Molecule": "PhoQ, residues 284 288 289 292 302 303 GTAMQF", "target": "PhoP, residues 12 14 15 18 19 NIMAP (Escherichia coli, UniProt P23836)", "test": "Sort-seq, measured: YFP reporter", "system": "E. coli", "conditions": "PhoQ-PhoP variant library, added: 10 µM Mg2+", "scale": "relative to: high Mg2+ state, higher = stronger signaling", "endpoint": "fold induction", "value": 0.475}
